Assay results from different studies.
Numbered parts are unrelated; each lists some results of a single study. Changes are numbered by the printed parent chain.

Set 1 — target: UBE2D2 UBC core domain (UniProt P62837); method: yeast two-hybrid; matrix: yeast; setting: mostly zero background; reference: not given; reading: higher = stronger interaction
Chain of UniProt P62837 (whole entry, looked up): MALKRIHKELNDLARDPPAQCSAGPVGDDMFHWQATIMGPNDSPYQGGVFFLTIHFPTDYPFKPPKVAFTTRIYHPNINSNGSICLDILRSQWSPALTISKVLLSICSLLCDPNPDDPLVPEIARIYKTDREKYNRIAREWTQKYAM
B1: RNF182 RING domain (UniProt Q8N6D2); chain AESQASDELECKICYNRYNLKQRKPKVLECCHRVCAKCLYKIIDFGDSPQGVIVCPFCRFETCLPDDEV
B2: NFX1 RING domain (UniProt Q12986); chain IEQLTTEKYECMVCCELVRVTAPVWSCQSCYHVFHLNCIKKWARSPASQADGQSGWRCPACQNVSAHVPNTY
B3: MARCHF1 RING domain (UniProt Q8TCQ1); chain TAPRSQSRLSVCPSTQDICRICHCEGDEESPLITPCRCTGTLRFVHQSCLHQWIKSSDTRCCELCKYDFIMETKLKPLRKWE
B4: MKRN3 RING domain (UniProt Q13064); chain FAVQRGMDKVCGICMEVVYEKANPNDRRFGILSNCNHSFCIRCIRRWRSARQFENRIVKSCPQCRVTSELVIPSE
B5: ZNRF4 RING domain (UniProt Q8WWF5); chain VRTFTWHNDLCAICLDEYEEGDQLKILPCSHTYHCKCIDPWFSQAPRRSCPVCKQSVAATEDSF
B6: RUFY1 RING domain (UniProt Q96T51); chain QALKGHAWLKDDEATHCRQCEKEFSISRRKHHCRNCGHIFCNTCSSNELALPSYPKPVRVCDSCHTLLLQRCSSTAS
B7: RNF6 RING domain (UniProt Q9Y252); chain NSIDSELGKICSVCISDYVTGNKLRQLPCMHEFHIHCIDRWLSENCTCPICRQPVLGSNIAN
Molecule	lacZ reporter activity
B1 (RNF182 RING domain)	0
ASPKIFQKTKCSICNSALELPSVHFLCGHSFHQHCFESYSESDADCPTCLPENRKVMDMI (VPS11 RING domain (UniProt Q9H270))	0
LVKDFNPYITCYICKGYLIKPTTVTECLHTFCKTCIVQHFEDSNDCPRCGNQVHETNPLE (PCGF5 RING domain (UniProt Q86SE9))	0
B2 (NFX1 RING domain)	0
B3 (MARCHF1 RING domain)	0
B4 (MKRN3 RING domain)	0
B5 (ZNRF4 RING domain)	12700
B6 (RUFY1 RING domain)	0
EIKEYKARLTCPCCNTRKKDAVLTKCFHVFCFECVRGRYEARQRKCPKCNAAFGAHDFHR (RNF40 RING domain (UniProt O75150))	0
B7 (RNF6 RING domain)	0

Set 2 — observed: peptide-MHC binding; form: peptide; concentration: concentration not given
Target: HLA class I histocompatibility antigen, A alpha chain, allele A*25:01 (Homo sapiens, UniProt P04439)
Molecule	binding
SELTVSPPD	inactive
ILNRETLLDFV	inactive
KMFTYLMES	inactive
VTGCASLYV	inactive
CTWPEASRY	inactive
ARLSSPIVL	inactive
TSASFTDLY	inactive

Set 3 — method: protein binding microarray; form: double-stranded DNA, one strand shown; matrix: in vitro; concentration: not given; reference: not given; reading: higher = stronger binding
Target: Histone acetyltransferase KAT6A, winged helix 2, GST fusion (KAT6A, Homo sapiens, UniProt Q92794, residues 85-181)
Setting: 8-mer, flanks averaged, mean of 2 arrays, mostly near background
Residues (chain): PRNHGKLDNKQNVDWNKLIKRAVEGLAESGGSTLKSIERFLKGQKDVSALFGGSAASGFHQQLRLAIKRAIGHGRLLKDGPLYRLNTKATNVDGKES
Oligonucleotide	E-score
CAGGCGTA	0.105
CGCCACCC	0.0618
CAACAGAA	0.00615
AATGCAGA	0.13
GCGTGGAA	-0.103
ATTCTGCC	0.0756
CTATACAC	-0.303
AAAACTAA	0.153

Set 4 — target: CCND2, cyclin fold, Cln2 fusion (human); method: yeast growth competition, sequencing; matrix: yeast; setting: strong parent motif; reference: not given; reading: higher = stronger binding; starting sequence: viral docking peptide; YKVKRRLVFGADD
Variant	normalised enrichment score
L7S	0.0355
G10R	0.941
V8R	0.301
R5G	-0.178
G10L	0.771
D12R	0.174

A few entries again (set 2):
Molecule	binding
ARLSSPIVL	inactive
CTWPEASRY	inactive
KMFTYLMES	inactive
VTGCASLYV	inactive
